Published values collected from several papers.
Numbered parts are unrelated; each lists some results of a single study. Positions count from the first letter of the parent shown.

Set 1 — method: RNA Bind-n-Seq; form: RNA; sample: in vitro; tested at: 365 nM; relative to: no-protein control; reading: higher = stronger binding; measurement: RBNS enrichment (R)
Target: RNA binding protein fox-1 homolog 2, RRM domain, GST-SBP tag (RBFOX2, Homo sapiens, UniProt O43251-10, residues 100-194)
Notes: natural RNA segment, single round, ends assumed
Shared flanks, not repeated: GGGAGUUCUACAGUCCGACGAUC … UGGAAUUCUCGGGUGCCAA
Construct (chain): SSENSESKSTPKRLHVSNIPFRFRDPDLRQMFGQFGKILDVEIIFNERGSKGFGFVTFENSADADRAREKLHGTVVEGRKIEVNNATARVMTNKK
AAUUUUAUUCGUAGAAAUCAGUAGAAAAAAAAAGUCUUGGGAACCUUCCAUCUGAUUUGCCUGGCCAUGCCAUCCAGUCCUUGUACAUAUAUACCUUGGAGUCCCAUACA: 0.462
GAGCGUUAUUAACCCAAAGCAGAACAAUGGUGCCAAUUUGAUUAUUAACUUAAAAAAAUAUACACUGCUUCCCAUAAACUGCUAGUUCAUCUCUCGGUACAAAGGAGUUA: 0.261
ACUACAGAAUAAUGUGCUAAGUAGUGCUAAAUAGUUCUUGACGAAGAAAACAGUCACUGCAUUUAUCUCUGUGAGUCUUUGUUCAGAGAGGCCUUUAGUCUAGAUUCUGC: 0.955
GGAGCUCUUCAAGAAAAGCAGAGUUCUUCUCGUUCUUGUUCAAUCCUAAAAGCAGAUGUUUUGCCAAAUCUCCAAACUAGAGGACAAAGACAAGGGGACAAUGACCAUCA: 0.345
GAAGCAUCCAAUGAUUUUUCCCUCCACUGCUGUUAAUUAAUGUCACUUCCAAGAAGAAAAACUGUUCUGUUGUAAAAAAUAUAAUUGCUCUUAAUUCUUGGGGAGGUUAC: 0.32
CAGGAGGCAUCAAGCCUCUAAAGAAUGUCUCACCUCCUCUGCCCAAAAAUGAUGCCUUUCUGUAGGCUGGUGUUGUUGCCUCCCUCCCAGGAUCCCUUUGGUGAGUAUGG: 0.468
UCUGCUGAUAGUCCGUGCUACAUUAAGGGACUGAGCAGAGAACACUCAGUCAAGUCCUGAUCCAUUUCGUCAUGAAGAGAGCAGGACCUUUCCAUUCUAUGAAGGGUGCG: 0.494
AAAGCAUUCUUCCCAGGGGAAGAGUGUAUCAUGCAUAACUGCAAUUUAAGUCCUUCCUUUGAUAAUACUUCAAAACAUACACAGCUUUGCUUACUGAAUUAUUUUUGCAA: 0.569

Set 2 — method: protein binding microarray; form: double-stranded DNA, one strand shown; sample: in vitro; tested at: not given; relative to: not given; reading: higher = stronger binding; measurement: E-score
Target: Histone acetyltransferase KAT6A, winged helix 1, GST fusion (KAT6A, Homo sapiens, UniProt Q92794, residues 1-85)
Notes: 8-mer, flanks averaged, mean of 2 arrays, mostly near background
Construct (chain): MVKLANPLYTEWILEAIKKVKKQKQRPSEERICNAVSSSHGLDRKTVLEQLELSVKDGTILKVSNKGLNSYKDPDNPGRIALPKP
CCATAGAG: -0.0827
GCACACTA: 0.0339
AGCGCGCA: 0.43
CCATTCGG: -0.0645
AAGAATAA: -0.123
CAGGGATA: -0.255
TGAGACAA: -0.172
GAGGCGTA: 0.147
GCGCACGC: 0.395
GATCGTTA: 0.0504
ATCAAGTG: -0.164
ACGACCGT: 0.17
AAGGGCTA: -0.0987
AAGCCAGT: -0.324
ACAACCGC: 0.214
ACAGTTAG: 0.0364
CCTGTTGA: -0.224
CTAGATCC: -0.145
ACCTCTTC: -0.0461
CGGGGATA: 0.153
CAGAATCA: -0.177

Set 3 — method: aptamer microarray, sandwich; form: DNA with 2'F-ANA; sample: in vitro; tested at: 200 nM; added: Cy3 exosite-II aptamer, 400 nM; reading: higher = stronger binding; measurement: mean fluorescence intensity; strand: GGTTGGTGTGGTTGG
Target: Prothrombin, mature alpha-thrombin (F2, Homo sapiens, UniProt P00734)
Notes: whole 15-mer aptamer, many near background
2'F-ANA at 1 2 4 8 10 11 12 15: 93.6 a.u.
2'F-ANA at 4 5 7 8 9 10 14 15: 46.8 a.u.
2'F-ANA at 1 2 3 4 5 7 8 12 14: 49.7 a.u.
2'F-ANA at 1 2 5 8 9 15: 64 a.u.
2'F-ANA at 1 2 4 9 11 13 14: 142 a.u.
2'F-ANA at 3 4 6 7 8 13 14: 317 a.u.
2'F-ANA at 1 4 5 6 8 9 14: 47.7 a.u.
2'F-ANA at 2 4 9 11 12 14: 121 a.u.
2'F-ANA at 2 4 6 9 11 13 15: 122 a.u.
2'F-ANA at 1 2 5 7 8 11 13 14 15: 49.4 a.u.
2'F-ANA at 1 3 6 8 9 11 13 15: 235 a.u.
2'F-ANA at 3 4 6 10 11 13 14 15: 147 a.u.
2'F-ANA at 1 2 5 10 11 15: 45 a.u.
2'F-ANA at 1 2 4 5 11 12 13 14 15: 51.3 a.u.
2'F-ANA at 2 4 6 8 12 13: 377 a.u.
2'F-ANA at 1 2 4 6 8 9 10 11 15: 51.2 a.u.

Set 4 — target: CCNB2, cyclin fold, Cln2 fusion (human); method: yeast growth competition, sequencing; sample: yeast; notes: strong parent motif; relative to: not given; reading: higher = stronger binding; measurement: normalised enrichment score
Starting sequence: MICAL3 docking peptide (human); LQLRRQLSFSEDS
LQLRRQLSFAEDS [S10A]: 1.75
LQLRFQLSFSEDS [R5F]: 0.362
LQLRRQLSFSMDS [E11M]: 1.65
LRLRRQLSFSEDS [Q2R]: 3.06
LQLRRWLSFSEDS [Q6W]: 0.494
LQLRRQWSFSEDS [L7W]: 0.534
LQLSRQLSFSEDS [R4S]: 1.6
LQLRRQGSFSEDS [L7G]: -0.124
LQLRRQLWFSEDS [S8W]: 0.946
LQLRRQLSMSEDS [F9M]: 0.248
LQLRRQLSQSEDS [F9Q]: 0.22
LQLARQLSFSEDS [R4A]: 3.34
LQLRRQLSFSNDS [E11N]: 2.11
LQLRRQKSFSEDS [L7K]: 0.392
LQLRRPLSFSEDS [Q6P]: -0.361
LQLRRQLTFSEDS [S8T]: 1.72

Set 5 — method: universal PBM; form: double-stranded DNA, one strand shown; sample: in vitro; tested at: 600 nM; reading: higher = stronger binding; measurement: E-score
Target: Sal-like protein 4, full length isoform A (SALL4, Homo sapiens, UniProt Q9UJQ4, residues 1-1053)
UniProt Q9UJQ4, sequence (whole entry, looked up): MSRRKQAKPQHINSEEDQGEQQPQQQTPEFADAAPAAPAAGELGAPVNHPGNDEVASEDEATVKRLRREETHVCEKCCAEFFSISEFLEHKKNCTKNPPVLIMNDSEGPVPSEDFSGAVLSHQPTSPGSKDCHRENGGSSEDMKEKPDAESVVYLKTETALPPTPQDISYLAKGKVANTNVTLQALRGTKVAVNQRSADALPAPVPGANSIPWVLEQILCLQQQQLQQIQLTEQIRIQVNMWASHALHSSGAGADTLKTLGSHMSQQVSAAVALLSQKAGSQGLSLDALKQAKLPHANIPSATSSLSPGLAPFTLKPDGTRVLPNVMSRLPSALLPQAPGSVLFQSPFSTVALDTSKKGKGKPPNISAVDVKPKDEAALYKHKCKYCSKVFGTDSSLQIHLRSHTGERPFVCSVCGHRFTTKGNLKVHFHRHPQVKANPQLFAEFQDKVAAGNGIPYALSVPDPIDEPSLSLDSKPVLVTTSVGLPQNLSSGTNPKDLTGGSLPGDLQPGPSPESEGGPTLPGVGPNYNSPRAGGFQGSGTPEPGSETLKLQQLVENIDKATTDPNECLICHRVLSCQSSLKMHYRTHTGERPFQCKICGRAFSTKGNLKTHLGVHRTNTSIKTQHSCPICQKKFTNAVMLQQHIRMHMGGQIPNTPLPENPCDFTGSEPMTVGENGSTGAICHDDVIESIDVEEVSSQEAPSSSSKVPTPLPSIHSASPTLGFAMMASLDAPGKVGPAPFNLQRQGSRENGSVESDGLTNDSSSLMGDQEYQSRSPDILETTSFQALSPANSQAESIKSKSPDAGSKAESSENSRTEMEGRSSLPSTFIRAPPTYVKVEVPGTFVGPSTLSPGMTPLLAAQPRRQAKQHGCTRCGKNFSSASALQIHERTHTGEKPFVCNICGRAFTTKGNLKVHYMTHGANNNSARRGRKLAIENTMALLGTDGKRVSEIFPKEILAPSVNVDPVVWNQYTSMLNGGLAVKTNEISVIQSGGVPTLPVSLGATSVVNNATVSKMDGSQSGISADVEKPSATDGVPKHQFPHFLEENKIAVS
Notes: 8-mer, flanks averaged, mean of replicates
TAGGTAGA: 0.101
ATTAACAG: 0.179
CTCTAGGC: -0.188
ACTAAAAG: 0.108
GGGTTACA: -0.0287
ACGTCACC: -0.134
TACAGCAA: 0.11
ATGGAGTA: 0.141
CACGGCTA: -0.0849
TTAAGGAA: 0.125
AACGTGAT: 0.134
AGAGGATA: 0.141
CAGCGGGA: -0.293
AACAAAGG: 0.0289
AAGGCAAC: 0.012
ATAGCTCA: 0.101
AAAAGCGA: 0.105
AGCACCTC: -0.24
AGAAGAGA: 0.0437
CGCCCGGA: -0.359
GCATTGTA: 0.134
GTTCGGGA: -0.176
GAGCATTA: 0.122
CGACTGTC: -0.128
ACTAAGGG: -0.131

A few entries again (set 1):
UCUGCUGAUAGUCCGUGCUACAUUAAGGGACUGAGCAGAGAACACUCAGUCAAGUCCUGAUCCAUUUCGUCAUGAAGAGAGCAGGACCUUUCCAUUCUAUGAAGGGUGCG: 0.494
GAGCGUUAUUAACCCAAAGCAGAACAAUGGUGCCAAUUUGAUUAUUAACUUAAAAAAAUAUACACUGCUUCCCAUAAACUGCUAGUUCAUCUCUCGGUACAAAGGAGUUA: 0.261
GGAGCUCUUCAAGAAAAGCAGAGUUCUUCUCGUUCUUGUUCAAUCCUAAAAGCAGAUGUUUUGCCAAAUCUCCAAACUAGAGGACAAAGACAAGGGGACAAUGACCAUCA: 0.345
ACUACAGAAUAAUGUGCUAAGUAGUGCUAAAUAGUUCUUGACGAAGAAAACAGUCACUGCAUUUAUCUCUGUGAGUCUUUGUUCAGAGAGGCCUUUAGUCUAGAUUCUGC: 0.955
AAAGCAUUCUUCCCAGGGGAAGAGUGUAUCAUGCAUAACUGCAAUUUAAGUCCUUCCUUUGAUAAUACUUCAAAACAUACACAGCUUUGCUUACUGAAUUAUUUUUGCAA: 0.569
AAUUUUAUUCGUAGAAAUCAGUAGAAAAAAAAAGUCUUGGGAACCUUCCAUCUGAUUUGCCUGGCCAUGCCAUCCAGUCCUUGUACAUAUAUACCUUGGAGUCCCAUACA: 0.462
GAAGCAUCCAAUGAUUUUUCCCUCCACUGCUGUUAAUUAAUGUCACUUCCAAGAAGAAAAACUGUUCUGUUGUAAAAAAUAUAAUUGCUCUUAAUUCUUGGGGAGGUUAC: 0.32
CAGGAGGCAUCAAGCCUCUAAAGAAUGUCUCACCUCCUCUGCCCAAAAAUGAUGCCUUUCUGUAGGCUGGUGUUGUUGCCUCCCUCCCAGGAUCCCUUUGGUGAGUAUGG: 0.468
